# Experimental data from different studies.
# Lines come from different studies, so protocols differ. “And” joins repeats or separate records; there may be more than shown. Numbers after ± are the reported error.
Structure (SMILES),test,system,setting,how to read,endpoint,result
CC(C)C(=O)OC[C@H]1O[C@@H](n2ccc(NO)nc2=O)[C@H](O)[C@@H]1O,,rat brain dialysate,"250 ng/mL, time not given, three freeze-thaw cycles, with: NHC 1000 ng/mL",,remaining compound,104 ± 1.35%
O=c1[nH]c(=O)[nH]c(=O)[nH]1,LC-MS/MS,"non-pregnant female rat, serum","oral, 1000 mg/kg/day, 10 days",,serum concentration,3.5 µg/mL and 5.4 µg/mL and 2.3 µg/mL and 11.6 µg/mL and 5.2 µg/mL
CC[C@H](C)[C@H](NC(=O)[C@H](CCCCN)NC(=O)[C@H](CCCCN)NC(=O)[C@H](CC(C)C)NC(=O)[C@@H](NC(=O)[C@H](CCCCN)NC(=O)[C@H](C)NC(=O)[C@H](C)NC(=O)[C@@H](NC(=O)CNC(=O)[C@H](C)NC(=O)[C@@H](NC(=O)[C@H](CCCCN)NC(=O)[C@@H]1CCCN1C(=O)[C@H](Cc1ccccc1)NC(=O)[C@@H](N)Cc1ccccc1)C(C)C)C(C)C)C(C)C)C(=O)N[C@@H](Cc1ccccc1)C(=O)N[C@H]1CSSC[C@@H](C(=O)O)NC(=O)[C@H](CCCCN)NC(=O)[C@H](CCCCN)NC(=O)[C@H](CO)NC(=O)[C@H]([C@@H](C)CC)NC(=O)[C@H]([C@@H](C)O)NC1=O,haemolysis,horse erythrocytes,"2 h, 37 °C",,HC50,80.8 µM
[123I]c1cncc(OC[C@@H]2CCN2)c1,SPECT,"human, thalamus","intravenous bolus, 8.6 mCi",baseline: plasma,tissue/plasma ratio,31.6
Cc1cc2c(C(C)C)c(O)c(O)c(C=O)c2c(O)c1-c1c(C)cc2c(C(C)C)c(O)c(O)c(C=O)c2c1O,HPLC,human plasma,"24 h, 4 °C",,remaining compound,~74.5%
CSCC[C@@H]1NC(=O)[C@H](CC(=O)O)NC(=O)CNC(=O)[C@H](CCCNC(=N)N)NC(=O)[C@H](C)NC(=O)[C@H](CCC(=O)O)NC(=O)[C@H](CCCNC(=N)N)NC(=O)[C@@H]2CSSC[C@@H]3NC(=O)[C@H](CO)NC(=O)[C@H]([C@@H](C)O)NC(=O)[C@@H]4CCCN4C(=O)[C@H](C)NC(=O)[C@H](Cc4c[nH]c5ccccc45)NC(=O)[C@H](CC(=O)O)NC(=O)CNC(=O)[C@H](CCCNC(=N)N)NC(=O)CNC(=O)[C@H](CCC(N)=O)NC(=O)[C@@H]4CCCN4C(=O)[C@@H](NC(=O)CNC(=O)C(C)F)CSSC[C@H](NC(=O)CNC(=O)[C@H](C)NC(=O)[C@H](CC(C)C)NC(=O)[C@H](CSSC[C@@H](C(=O)NCC(N)=O)NC(=O)[C@H]([C@@H](C)O)NC(=O)[C@H](CCCNC(=N)N)NC(=O)[C@@H]4CCCN4C1=O)NC(=O)[C@H](CC(=O)O)NC(=O)[C@H](CO)NC(=O)[C@H](CC(=O)O)NC(=O)[C@H](CCC(N)=O)NC(=O)[C@H](CO)NC3=O)C(=O)N[C@@H](C(C)C)C(=O)N2 (some centres unmarked) [fluorine-18 labelled],,"nude mice U-87 MG xenograft, bone","intravenous, 0.5 h",,tissue uptake,0.79 ± 0.17 %ID/g
COc1cc(Nc2ncc(F)c(Nc3ccc4c(n3)NC(=O)C(C)(C)O4)n2)cc(OC)c1OC,,buffer with surfactant or BSA,,,solubility,≥ 10 µM
O[C@H]1CCCN[C@@H]1CCCn1cnc2c(Cl)c(Cl)ccc21,,"human, plasma","oral, 100 mg single dose, solution, geometric mean",,Vz/F,1890 L
CNC(=O)c1ccc(-c2cnn3ccc(C(=O)N(C)c4ccc(Cl)c(C(=O)OC)c4)cc23)cc1,,"beagle dogs, both sexes, plasma","oral, 250 mg/kg/day, day 14, 2-week toxicology study",,AUC(0-8 h),0.248 µg·h/mL
O=c1[nH]c(Cc2ccccn2)nc2c1cnn2C1CCOCC1,,"healthy men, extensive metabolizers, plasma","oral, 50 mg single dose, tablet, geometric mean",,Cmax,0.479 µM
c1cc2ccc3cccc4ccc(c1)c2c34,HPLC-fluorescence,"Wistar rat, male, liver","oral, 4 mg/kg, 24 h",,tissue concentration,18.4 ± 3.2 ng/g
C[C@]12CC[C@H](O)C[C@H]1CC[C@@H]1[C@@H]2CC[C@]2(C)[C@@H](c3ccc(=O)oc3)CC[C@]12O,HPLC-UV,water,"24 h, pH neutral, room temperature",,aqueous solubility,0.0424 mg/mL
NCCc1c[nH]c2ccc(O)cc12,,human liver mitochondrial preparation,"1 µM, 30 min, 0.5 mg/mL protein",,percent metabolized,87%
O=C(c1ccc(F)c(F)c1Nc1ccc(I)cc1F)N1CC(O)([C@@H]2CCCCN2)C1,refers to: retinal detachment,human patients,"oral, 1 mg/kg, dose expansion, grade G4",,treatment-related adverse events,0%
O=C(O)CC[C@H](NC(=O)CNC(=O)[C@@H]1C[C@@H](O)CN1)C(=O)N[C@@H](Cc1ccccc1)C(=O)NCC(=O)O,,"ICR mouse, tail bleeding","oral, 450 µmol/kg",baseline: vehicle,thymus index,no effect
N[C@@H](CC(=O)N1CCc2c(nc(C(F)(F)F)nc2C(F)(F)F)C1)CN1CC(F)(F)CCC1=O,,"healthy Korean men, plasma","oral, dose not given, with: glimepiride",baseline: with over without glimepiride,Cmax ratio steady state,1.01
CC(C)C[C@H](NC(=O)CNC(=O)[C@H](CCCNC(=N)N)NC(=O)[C@@H]1CCCN1C(=O)[C@@H](NC(=O)CNC(=O)[C@H](CCCNC(=N)N)NC(=O)[C@H](CC(C)C)NC(=O)[C@H](CCC(=O)O)NC(=O)[C@H](C)NC(=O)[C@H](CC(C)C)NC(=O)[C@H](CCCNC(=N)N)NC(=O)[C@H](CO)NC(=O)[C@H](CCCNC(=N)N)NC(=O)[C@H](C)NC(=O)[C@H](CCCNC(=N)N)NC(=O)[C@H](CCCNC(=N)N)NC(=O)[C@H](CCCNC(=N)N)NC(=O)[C@H](CCC(N)=O)NC(=O)[C@H](CCCNC(=N)N)NC(=O)[C@H](CCCNC(=N)N)NC(=O)[C@H](CCCCN)NC(=O)[C@H](CCCCN)NC(=O)[C@H](CCCNC(=N)N)NC(=O)CNC(=O)[C@@H](N)Cc1ccc(O)cc1)C(C)C)C(=O)O,conditioned place preference,rat,"intracerebroventricular, 10 µg in 5 µL, 5 pairings, test 24 h after last",baseline: total time,time in drug-paired chamber,45.7 ± 7.1%
CCNc1nc(Cl)nc(NC(C)C)n1,LC-MS/MS,herbicide solution,"2 h, 40 °C, with: 254 nm UV exposure",,remaining amount,64.23 ± 0.01%
O=C(O)CCCc1ccc(N(CCCl)CCCl)cc1,mitochondrial swelling,BALB/cByJ female mouse liver mitochondria,"30 min, with: succinate + rotenone",baseline: CaCl2 maximal swelling,EC20,> 200 µM
CC[C@H](C)[C@H](NC(=O)[C@@H](N)CCCNC(=N)N)C(=O)N[C@H](C(=O)N1CCC[C@H]1C(=O)N[C@@H](C)C(N)=O)C(C)C,,"human, plasma","intravenous, 0.15 mg/kg, single dose, healthy volunteers",,AUC(0-t),0.041 µg·h/mL
CCCCCOc1ccc(-c2cc(-c3ccc(C(=O)N[C@H]4C[C@@H](O)[C@@H](O)NC(=O)[C@@H]5[C@@H](O)[C@@H](C)CN5C(=O)[C@H]([C@H](O)CC(N)=O)NC(=O)[C@H]([C@H](O)[C@@H](O)c5ccc(O)c(OS(=O)(=O)O)c5)NC(=O)[C@@H]5C[C@@H](O)CN5C(=O)[C@H]([C@@H](C)O)NC4=O)cc3)no2)cc1,,"young infants at least 1000 g, plasma","intravenous infusion, 7 mg/kg/day, day 4, median, 1 h infusion, repeat dosing",,half-life,11.3 h
CC(C)[C@H]1C(=O)N[C@@H](CCCN=C(N)N)C(=O)NCC(=O)N[C@@H](CC(=O)O)C(=O)N[C@H](Cc2ccccc2)C(=O)N1C,,"cynomolgus monkey, plasma","intravenous, 2 mg/kg",,clearance,0.3 L/h/kg
CC1(C)S[C@@H]2[C@H](NC(=O)[C@H](C(=O)O)c3ccsc3)C(=O)N2[C@H]1C(=O)O,,"Sprague-Dawley rat, plasma","intravenous, 144 mg/kg",,t1/2,1.04 ± 0.09 h
CN[C@@](C)(C[18F])C(=O)O,,"SCID mouse DU-145 xenograft, heart","120 min, post injection",,tissue uptake,3.5 ± 0.9 %ID/g
Cc1cc2c(s1)Nc1ccccc1N=C2N1CCN(C)CC1,,pregnant SWV mice,"oral, 16.05 mg/kg, GD 0, dosed GD 4 to 17",,maternal body weight,27.8 ± 2.7 g
N[C@@H](Cc1ccc(F)cc1)C(=O)O,in situ brain perfusion,"CF-1 mice, mdr1a(-/-)","1 µM, 60-180 s",,brain uptake clearance Kin,142 mL/100 g/min
CC(C)[C@H](NC(=O)[C@H](Cc1c[nH]c2ccccc12)NC(=O)[C@H](CCCCN)NC(=O)CNC(=O)[C@@H](NC(=O)[C@H](C)NC(=O)[C@@H]1CCCN1C(=O)[C@H](CC(N)=O)NC(=O)[C@H](Cc1c[nH]c2ccccc12)NC(=O)[C@@H](NC(=O)[C@H](Cc1c[nH]c2ccccc12)NC(=O)[C@@H](N)CCCNC(=N)N)C(C)C)[C@@H](C)O)C(=O)N[C@@H](Cc1c[nH]c2ccccc12)C(=O)N[C@@H](CCC(=O)O)C(=O)O,circular dichroism,phosphate buffer,pH 6.5,,Tm,97.9 ± 0.1 °C
CC(=O)O[C@H]1C(=O)[C@@]2(C)[C@H]([C@H](OC(=O)c3ccccc3)[C@]3(O)C[C@H](OC(=O)[C@H](O)[C@@H](NC(=O)c4ccccc4)c4ccccc4)C(C)=C1C3(C)C)[C@]1(OC(C)=O)CO[C@@H]1C[C@@H]2O,,"BALB/c mouse, serum","intraperitoneal, 10 mg/kg every three days, 60 days",,urea,126 µmol/L and 93.5 µmol/L and 112 µmol/L
CC[C@H](C)[C@H](NC(=O)[C@H](CO)NC(=O)[C@H](C)NC(=O)[C@@H](NC(=O)CNC(=O)[C@H](CO)NC(=O)[C@@H](NC(=O)[C@@H](NC(=O)[C@H](Cc1c[nH]cn1)NC(=O)[C@@H]1CCCN1C(=O)[C@@H](NC(=O)[C@H](CC(C)C)NC(=O)[C@H](CO)NC(=O)[C@H](CC(C)C)NC(=O)[C@@H](N)Cc1ccccc1)[C@@H](C)CC)[C@@H](C)CC)C(C)C)C(C)C)C(=O)N[C@@H](C)C(=O)N[C@@H](CCCCN)C(=O)N[C@@H](Cc1c[nH]cn1)C(=O)N[C@@H](Cc1ccccc1)C(N)=O,UPLC-MS/MS,rat plasma,"0.2 µg/mL, 4 h, room temperature, short-term stability",,concentration found,0.189 µg/mL
COc1ccc(C[C@@H]2NC(=O)[C@H]([C@@H](C)O)NC(=O)[C@@H]3[C@@H]4CCN3C(=O)[C@@H]3Cc5cn(c6ccc(F)cc56)CCCCCCN(Cc5ccc(cc5)CCNC(=O)[C@]5(C)CCCN5C2=O)C(=O)CCC(=O)N[C@@H](C)C(=O)N[C@H](CNC(=O)CCCCC[N+](C)(C)C)C(=O)N[C@@H](Cc2cccc(c2)CNC(=O)CO4)C(=O)N3)cc1,,"fasted healthy humans, plasma","oral, 300 mg single dose, with 1800 mg Labrasol, geometric mean",,Vz/F,15900 L
CCCCCOc1ccc(-c2cc(-c3ccc(C(=O)N[C@H]4C[C@@H](O)[C@@H](O)NC(=O)[C@@H]5[C@@H](O)[C@@H](C)CN5C(=O)[C@H]([C@H](O)CC(N)=O)NC(=O)[C@H]([C@H](O)[C@@H](O)c5ccc(O)c(OS(=O)(=O)O)c5)NC(=O)[C@@H]5C[C@@H](O)CN5C(=O)[C@H]([C@@H](C)O)NC4=O)cc3)no2)cc1,,"human children aged 6-11 years, plasma","intravenous, 4.5 mg/kg once daily, day 7, mean",,clearance at steady state,0.0164 L/h/kg
CC(=O)N[C@H](CCCCNC(=O)C(C)F)C(=O)N[C@@H](CS)C(=O)N[C@@H](CS)C(=O)N[C@@H](CCC(=O)O)C(=O)N[C@@H](Cc1c[nH]cn1)C(=O)N[C@H](Cc1ccccc1)C(=O)N[C@@H](CCCNC(=N)N)C(=O)N[C@@H](Cc1c[nH]c2ccccc12)C(=O)N[C@@H](CS)C(=O)N[C@@H](CCCNC(=N)N)C(=O)N1CCC[C@H]1C(=O)N[C@H](C(N)=O)C(C)C (some centres unmarked) [fluorine-18 labelled],,"C57BL/6 mice, male, B16-F10 tumour, spleen","intravenous, 4 h",,tissue uptake,0.2 ± 0.04 %ID/g

# Some of these lines once more:
Structure (SMILES),test,system,setting,how to read,endpoint,result
CC1(C)S[C@@H]2[C@H](NC(=O)[C@H](C(=O)O)c3ccsc3)C(=O)N2[C@H]1C(=O)O,,"Sprague-Dawley rat, plasma","intravenous, 144 mg/kg",,t1/2,1.04 ± 0.09 h
CC[C@H](C)[C@H](NC(=O)[C@H](CO)NC(=O)[C@H](C)NC(=O)[C@@H](NC(=O)CNC(=O)[C@H](CO)NC(=O)[C@@H](NC(=O)[C@@H](NC(=O)[C@H](Cc1c[nH]cn1)NC(=O)[C@@H]1CCCN1C(=O)[C@@H](NC(=O)[C@H](CC(C)C)NC(=O)[C@H](CO)NC(=O)[C@H](CC(C)C)NC(=O)[C@@H](N)Cc1ccccc1)[C@@H](C)CC)[C@@H](C)CC)C(C)C)C(C)C)C(=O)N[C@@H](C)C(=O)N[C@@H](CCCCN)C(=O)N[C@@H](Cc1c[nH]cn1)C(=O)N[C@@H](Cc1ccccc1)C(N)=O,UPLC-MS/MS,rat plasma,"0.2 µg/mL, 4 h, room temperature, short-term stability",,concentration found,0.189 µg/mL
